{"data": "Assay results pooled from the literature", "note": "Lines come from different studies, so protocols differ. ± gives the spread as reported.", "sequence of UniProt Q3TKT4 (whole entry, looked up)": "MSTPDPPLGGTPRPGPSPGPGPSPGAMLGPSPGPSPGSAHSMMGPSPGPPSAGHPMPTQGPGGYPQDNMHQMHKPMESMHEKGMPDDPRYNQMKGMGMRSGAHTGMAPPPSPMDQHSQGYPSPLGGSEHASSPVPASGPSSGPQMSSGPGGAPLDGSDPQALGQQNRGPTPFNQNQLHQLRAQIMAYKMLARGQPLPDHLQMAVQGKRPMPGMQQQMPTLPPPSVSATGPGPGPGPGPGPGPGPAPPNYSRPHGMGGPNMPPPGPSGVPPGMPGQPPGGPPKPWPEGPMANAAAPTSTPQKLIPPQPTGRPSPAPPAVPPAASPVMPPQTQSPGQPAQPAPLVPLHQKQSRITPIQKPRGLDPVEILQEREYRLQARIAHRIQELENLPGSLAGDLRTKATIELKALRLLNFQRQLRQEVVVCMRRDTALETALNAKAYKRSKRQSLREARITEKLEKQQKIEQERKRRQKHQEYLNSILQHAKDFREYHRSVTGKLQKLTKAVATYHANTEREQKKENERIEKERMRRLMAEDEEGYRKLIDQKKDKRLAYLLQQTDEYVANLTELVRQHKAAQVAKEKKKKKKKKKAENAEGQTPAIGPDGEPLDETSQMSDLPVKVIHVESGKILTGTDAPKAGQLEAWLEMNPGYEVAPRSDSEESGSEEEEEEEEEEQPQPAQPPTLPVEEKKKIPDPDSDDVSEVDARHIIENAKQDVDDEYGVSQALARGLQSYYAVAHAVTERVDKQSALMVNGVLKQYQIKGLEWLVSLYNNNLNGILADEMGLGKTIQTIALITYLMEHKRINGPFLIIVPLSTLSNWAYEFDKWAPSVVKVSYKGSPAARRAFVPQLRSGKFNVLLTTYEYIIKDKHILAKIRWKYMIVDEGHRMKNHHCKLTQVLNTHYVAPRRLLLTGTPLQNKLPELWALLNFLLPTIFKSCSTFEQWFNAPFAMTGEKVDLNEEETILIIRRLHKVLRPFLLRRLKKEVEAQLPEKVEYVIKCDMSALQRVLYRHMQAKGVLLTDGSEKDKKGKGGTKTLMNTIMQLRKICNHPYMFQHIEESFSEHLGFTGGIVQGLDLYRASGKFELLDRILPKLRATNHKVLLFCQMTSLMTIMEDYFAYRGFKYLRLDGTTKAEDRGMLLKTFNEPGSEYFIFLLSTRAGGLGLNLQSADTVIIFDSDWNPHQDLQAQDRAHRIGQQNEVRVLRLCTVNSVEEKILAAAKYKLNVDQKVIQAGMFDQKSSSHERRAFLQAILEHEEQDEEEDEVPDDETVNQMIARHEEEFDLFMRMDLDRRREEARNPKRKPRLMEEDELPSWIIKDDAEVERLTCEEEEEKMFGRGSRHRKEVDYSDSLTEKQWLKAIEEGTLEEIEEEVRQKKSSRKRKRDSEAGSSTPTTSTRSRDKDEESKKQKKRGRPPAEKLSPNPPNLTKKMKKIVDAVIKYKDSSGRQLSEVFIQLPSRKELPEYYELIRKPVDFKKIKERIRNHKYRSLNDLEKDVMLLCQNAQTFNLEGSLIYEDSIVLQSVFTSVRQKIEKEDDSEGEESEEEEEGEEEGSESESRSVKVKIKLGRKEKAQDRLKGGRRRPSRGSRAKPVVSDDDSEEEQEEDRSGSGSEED"}
{"Sequence": "TCTTTTTTTTTTTTTTTCTTTTTTCCTCC (dsDNA)", "target": "Smarca4 AT-hook (Mus musculus, UniProt Q3TKT4)", "assay": "EMSA", "system": "double-stranded DNA, one strand shown", "conditions": "together with: Mg2+ 5 mM", "quantity": "Kd", "result": "1800 nM"}
{"Sequence": "AATCCGCAGTCACAGTGACTCAGCAGAATCTGAGCCTAG (dsDNA)", "target": "NRF2/MAFG (Homo sapiens)", "assay": "competition EMSA", "system": "double-stranded DNA, one strand shown", "conditions": "500 nM", "quantity": "binding", "result": "binds"}
{"Sequence": "CGATCATGGAGCCACGAGCTCCCGTTACAG / CTGTAACGGGAGCTAGTGGCTCCATGATCG (dsDNA; blunt, 8-oxoG:2'-fluoro-arabino-A pair)", "target": "MUTYH 1-535 S524A (Homo sapiens)", "assay": "EMSA", "quantity": "Kd", "result": "1.5 ± 0.1 nM"}
{"Sequence": "TGCCATAGAATCTCGACTATCGCAAAT (ssDNA)", "target": "gene 32 protein 22-301 del1-21 (bacteriophage T4, UniProt P03695)", "assay": "EMSA", "system": "single-stranded DNA", "conditions": "together with: Mg2+", "quantity": "binding", "result": "no binding"}
{"Sequence": "AAGGGGGGCTATAAAAGGGGGTGGGGGCGCGTTCGTCCTCACTCTCTTCCCCTCCATACC (dsDNA)", "target": "TBP/GTF2B 1-339; 1-316 (Homo sapiens)", "assay": "EMSA", "system": "double-stranded DNA, one strand shown", "conditions": "PreScission treated", "quantity": "binding", "result": "binds"}
{"Sequence": "TCAGTGACCCATCTTGCTGAGCTCTGCTAAACCTGTTGA (dsDNA)", "target": "NRF2/MAFG (Homo sapiens)", "assay": "competition EMSA", "system": "double-stranded DNA, one strand shown", "conditions": "500 nM", "quantity": "binding", "result": "no binding"}
{"note": "Some of these lines once more:"}
{"Sequence": "TCTTTTTTTTTTTTTTTCTTTTTTCCTCC (dsDNA)", "target": "Smarca4 AT-hook (Mus musculus, UniProt Q3TKT4)", "assay": "EMSA", "system": "double-stranded DNA, one strand shown", "conditions": "together with: Mg2+ 5 mM", "quantity": "Kd", "result": "1800 nM"}
